Measured values gathered from unrelated publications.
Compare with care: the assays were run in different laboratories. Numbers after ± are the reported error.
UniProt P00761, sequence (whole entry, looked up): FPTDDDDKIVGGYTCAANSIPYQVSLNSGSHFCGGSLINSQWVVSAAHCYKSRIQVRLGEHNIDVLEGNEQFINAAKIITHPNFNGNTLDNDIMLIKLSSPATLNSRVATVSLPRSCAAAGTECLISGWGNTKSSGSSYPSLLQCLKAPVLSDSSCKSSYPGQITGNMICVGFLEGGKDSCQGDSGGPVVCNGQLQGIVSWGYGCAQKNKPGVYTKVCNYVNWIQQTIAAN
UniProt P10635, sequence (whole entry, looked up): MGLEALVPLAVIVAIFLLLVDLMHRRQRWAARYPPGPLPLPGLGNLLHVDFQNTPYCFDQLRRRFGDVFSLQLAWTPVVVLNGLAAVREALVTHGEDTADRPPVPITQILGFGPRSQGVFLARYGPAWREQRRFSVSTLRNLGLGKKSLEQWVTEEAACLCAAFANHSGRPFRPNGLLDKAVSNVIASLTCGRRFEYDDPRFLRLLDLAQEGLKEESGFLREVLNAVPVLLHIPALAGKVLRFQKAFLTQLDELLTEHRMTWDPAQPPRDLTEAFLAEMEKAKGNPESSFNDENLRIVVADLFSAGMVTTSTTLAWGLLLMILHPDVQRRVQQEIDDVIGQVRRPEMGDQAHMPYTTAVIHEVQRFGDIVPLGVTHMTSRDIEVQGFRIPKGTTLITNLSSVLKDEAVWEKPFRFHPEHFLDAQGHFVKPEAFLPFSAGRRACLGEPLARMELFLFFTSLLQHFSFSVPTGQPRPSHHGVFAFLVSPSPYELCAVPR

N#C[C@@H]1CC(F)(F)CN1C(=O)CNC(=O)c1ccnc2c(NC(=O)[C@@H](N)CCCCNC(=O)CCOCCOCCOCCOCCOCCOCCNC(=O)CN3CCN(CC(=O)[O-])CCN(CC(=O)[O-])CCN(CC(=O)[O-])CC3)cccc12.[177Lu+3] — tracer uptake (U-87 MG tumour model; host not given, pancreas; 4 h, tumour-bearing): 0.16 %ID/g
CC(=O)Nc1ccc([C@H]2[C@@H](F)[C@@H](F)C[C@@H](F)[C@H]2F)cc1 — hepatic clearance (liver microsome stability; cynomolgus liver microsomes; 1 µM): 29 mL/min/kg
CCCCCCCCCCCCCCCC(=O)N[C@@H](CCC(=O)NCCCC[C@H](NC(=O)[C@H](CCC(N)=O)NC(=O)[C@H](Cc1c[nH]cn1)NC(=O)[C@@H](NC(=O)[C@H](CCCCN)NC(=O)[C@H](CC(=O)O)NC(=O)[C@H](CCSC)NC(=O)[C@H](C)NC(=O)[C@@H](NC(=O)[C@H](CO)NC(=O)[C@H](Cc1ccc(O)cc1)NC(=O)[C@H](CC(=O)O)NC(=O)[C@H](CO)NC(=O)[C@@H](NC(=O)[C@H](Cc1ccccc1)NC(=O)[C@@H](NC(=O)CNC(=O)[C@H](CCC(=O)O)NC(=O)[C@H](C)NC(=O)[C@H](Cc1ccc(O)cc1)NCC(F)(F)F)[C@@H](C)O)[C@@H](C)CC)[C@@H](C)CC)[C@@H](C)CC)C(=O)N[C@@H](CC(=O)O)C(=O)N[C@@H](Cc1ccccc1)C(=O)N[C@H](C(=O)N[C@@H](CC(N)=O)C(=O)N[C@@H](Cc1c[nH]c2ccccc12)C(=O)N[C@@H](CC(C)C)C(=O)N[C@@H](CC(C)C)C(=O)N[C@@H](C)C(=O)N[C@@H](CCC(N)=O)C(=O)N[C@@H](CCCCN)C(=O)NCC(=O)N[C@@H](CCCCN)C(=O)N[C@@H](CCCCN)C(=O)N[C@@H](CC(N)=O)C(=O)N[C@@H](CC(=O)O)C(=O)N[C@@H](Cc1c[nH]c2ccccc12)C(=O)N[C@@H](CCCCN)C(=O)N[C@@H](Cc1c[nH]cn1)C(=O)N[C@@H](CC(N)=O)C(=O)N[C@H](C(=O)N[C@H](C(=O)N[C@@H](CCC(N)=O)C(=O)O)[C@@H](C)O)[C@@H](C)CC)C(C)C)C(=O)O — fragment formed (Trypsin (Sus scrofa, UniProt P00761); LC-MS, item: fragment 1-32; 18 h, pH 8.0, 37 °C, with: trypsin 2.5 mg/mL): 15%
O=C(NCCO)c1ccc([C@H]2[C@@H](F)[C@@H](F)C[C@@H](F)[C@H]2F)cc1 — hepatic clearance (hepatocyte stability; cryopreserved human hepatocytes; 1 µM): 6.2 mL/min/kg
N#C[C@@H]1CC(F)(F)CN1C(=O)CNC(=O)c1ccnc2c(NC(=O)CCOCCOCCOCCOCCOCCOCCNC(=O)[C@H](CCCCNC(=O)CN3CCN(CC(=O)[O-])CCN(CC(=O)[O-])CCN(CC(=O)[O-])CC3)NC(=O)CCCc3ccc(I)cc3)cccc12.[177Lu+3] — tracer uptake (U-87 MG tumour model; host not given, bone; 1 h, tumour-bearing): 3.74 %ID/g
Cc1cc(=O)c2c(O)c3c(O[C@@H]4O[C@H](CO)[C@@H](O)[C@H](O)[C@H]4O)cc(O)cc3cc2o1 — cell viability (HepaRG co-cultured with HK-2; MTT; 133.33 µM, 24 h; baseline: untreated control): 83.8 ± 20.6%
Nc1nc2cc(C(=O)c3ccc(F)cc3)ccc2[nH]1 — revertants per plate (Salmonella typhimurium; Ames preincubation test; TA1537; 156.0 µg/plate, 3 days, without S9): 13.3 revertants/plate
COc1cccc(OC)c1-c1cc(C(=O)NC2(C(=O)O)C3CC4CC(C3)CC2C4)nn1-c1ccc(C(=O)N(C)CCCN(C)C(=O)[C@H](CCCCNC(=O)[C@H](CC(C)C)NC(=O)C2OC2C(=O)O)NC(=O)CN2CCN(CC(=O)[O-])CCN(CC(=O)[O-])CCN(CC(=O)[O-])CC2)cc1C(C)C.[177Lu+3] (mixture of isomers) — tracer uptake (HT-29 tumour model; host not given, stomach; 4 h, tumour-bearing): 0.198 %ID/g
O=C(Nc1cccc(N2CCNCC2)c1)c1cc(-c2ccccc2)n(-c2ccccc2)n1 — CC50 (HeLa; cell growth or viability): 16 µM
CNC(=O)C1CCCN(C(=O)C2CC3CCC2N3C(=O)[C@@H]2C[C@@H](O)CN2C(=O)NCc2cccc(Cl)c2F)C1 (mixture of isomers) — dextrorphan formation (Cytochrome P450 2D6 (CYP2D6, Homo sapiens, UniProt P10635); enzyme activity, inhibitor, time-dependent inhibition; 16.7 µM, preincubated with NADPH): 143 ng/mL
CCN(CC)CC#CCNc1ccnc2cc(Cl)ccc12 — revertants per well (Salmonella typhimurium; mini-Ames test; TA102; 125.0 µg/well, without S9): 73
O=C(CCC(F)(F)F)Nc1ccc([C@H]2[C@@H](F)[C@@H](F)C[C@@H](F)[C@H]2F)cc1 — hepatic clearance (liver microsome stability; mouse liver microsomes; 1 µM): 55 mL/min/kg
CC(=O)N[C@H](C(=O)N[C@H](C(=O)N[C@@H](CCCNC(=N)N)C(=O)N[C@@H](CC(N)=O)C(=O)N[C@@H](CC(=O)O)C(=O)N[C@H](C(=O)N1CCC[C@@H]1C(=O)N1CCC[C@H]1C(=O)N[C@@H](CC(=O)O)C(=O)N[C@@H](CO)C(=O)N[C@@H](CC(C)C)C(=O)N[C@@H](CC(C)C)C(=O)N[C@H](C(=O)N[C@@H](Cc1ccccc1)C(N)=O)C(C)C)C(C)C)[C@@H](C)O)C(C)C — peptide amount per protein (HEK-293T; subcellular fractionation LC-MS; cytoplasmic fraction; 20 µM, 2 h): not detected
O=C(NCc1cccc(Cl)c1)c1ccc([C@H]2[C@@H](F)[C@@H](F)C[C@@H](F)[C@H]2F)cc1 — hepatic clearance (liver microsome stability; human liver microsomes; 1 µM, without NADPH): 3.9 mL/min/kg
CC(C)OCCOCc1ccc(OCC(O)CN(N=O)C(C)C)cc1 (stereo not drawn) — revertant fold increase (Escherichia coli; Ames test; WP2 uvrA; 15.8 µg/plate, without metabolic activation; baseline: solvent control): 0.9 fold

Some of these lines once more:
O=C(CCC(F)(F)F)Nc1ccc([C@H]2[C@@H](F)[C@@H](F)C[C@@H](F)[C@H]2F)cc1 — hepatic clearance (liver microsome stability; mouse liver microsomes; 1 µM): 55 mL/min/kg
